Assay results collected from several papers.
Each numbered part is a random draw from the data of one study; scales do not carry over between parts. Substitutions count along the parent as printed.

Series 1
Target: ABI1, truncated, D143A, DHFR fusion (Arabidopsis thaliana)
Technique: DHFR PCA, deep sequencing
Matrix: yeast
Setting: methotrexate growth selection, single substitutions
With: (+)-ABA 2500 µM
Relative to: wild-type fitted maximum
Reading: higher = stronger binding
Endpoint: relative binding score
Starting sequence: PYL1, truncated, DHFR fusion (Arabidopsis thaliana); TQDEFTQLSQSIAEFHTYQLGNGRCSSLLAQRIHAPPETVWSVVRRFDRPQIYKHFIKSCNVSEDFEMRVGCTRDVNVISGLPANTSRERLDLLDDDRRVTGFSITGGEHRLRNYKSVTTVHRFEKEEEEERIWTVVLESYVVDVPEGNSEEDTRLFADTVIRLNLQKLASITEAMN; partner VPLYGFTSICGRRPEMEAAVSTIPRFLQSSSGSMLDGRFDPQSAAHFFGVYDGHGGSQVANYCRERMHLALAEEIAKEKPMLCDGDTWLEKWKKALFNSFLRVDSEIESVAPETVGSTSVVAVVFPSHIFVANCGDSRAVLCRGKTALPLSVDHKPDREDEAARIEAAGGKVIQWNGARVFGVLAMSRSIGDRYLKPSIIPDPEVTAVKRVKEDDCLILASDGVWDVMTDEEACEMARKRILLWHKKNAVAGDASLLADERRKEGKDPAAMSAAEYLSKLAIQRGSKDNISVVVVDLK
M68C: 91.8%
E131C: 101%
V44A: 100%
L93V: 104%
R99L: 106%
E130W: 96%
V100E: 41.1%
V76K: 33.2%
A158P: 42.8%
V161T: 77.8%
F103I: 93%
Q7K: 104%
R98L: 107%
C25Q: 86.1%
S27A: 96.8%
C60P: 31.7%
A35C: 100%

Series 2
Target: CCNB1, cyclin fold, Cln2 fusion (human)
Technique: yeast growth competition, sequencing
Matrix: yeast
Setting: strong parent motif
Relative to: not given
Reading: higher = stronger binding
Endpoint: normalised enrichment score
Starting sequence: PKN2 docking peptide (human); VSAVQKLDFSDTM; partner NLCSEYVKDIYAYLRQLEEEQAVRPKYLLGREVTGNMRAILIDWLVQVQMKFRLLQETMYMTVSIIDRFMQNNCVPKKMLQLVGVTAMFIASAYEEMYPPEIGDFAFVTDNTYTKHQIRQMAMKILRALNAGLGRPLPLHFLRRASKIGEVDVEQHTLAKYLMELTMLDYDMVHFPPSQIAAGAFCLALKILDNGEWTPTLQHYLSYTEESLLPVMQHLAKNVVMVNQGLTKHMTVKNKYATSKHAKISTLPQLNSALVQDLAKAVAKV
S10W: 1.18
K6N: 0.969
V1S: 2.1
T12M: 1.61
F9D: 0.312
K6M: 1.25
V1R: 2.12
D8C: 1.55
M13C: 2.48
S10Y: 1.46
T12K: 1.26
T12A: 2.07
T12R: 1.62
V4S: 0.499
L7H: 0.0879
D11V: 0.741
V4P: 0.294
D11P: 1.17
F9Y: 1.21

Series 3
Target: Interferon regulatory factor 7, full length, phosphomimetic (IRF7, Homo sapiens, UniProt Q92985, residues 1-503, S471D/S472D/S475D/S476D/S477D/S483D/S484D/S487D)
Technique: protein-binding microarray
Form: double-stranded DNA, one strand shown
Matrix: in vitro
Concentration: 2200 nM top
Setting: 60-bp whole probe
With: salmon DNA 0.4 mg/ml
Relative to: random background probes
Reading: higher = stronger binding
Endpoint: fitted relative affinity
Shared flanks, not repeated: GCCTAGCAC … GTCTTGATTCGCTTGACGCTGCTG
Construct (chain): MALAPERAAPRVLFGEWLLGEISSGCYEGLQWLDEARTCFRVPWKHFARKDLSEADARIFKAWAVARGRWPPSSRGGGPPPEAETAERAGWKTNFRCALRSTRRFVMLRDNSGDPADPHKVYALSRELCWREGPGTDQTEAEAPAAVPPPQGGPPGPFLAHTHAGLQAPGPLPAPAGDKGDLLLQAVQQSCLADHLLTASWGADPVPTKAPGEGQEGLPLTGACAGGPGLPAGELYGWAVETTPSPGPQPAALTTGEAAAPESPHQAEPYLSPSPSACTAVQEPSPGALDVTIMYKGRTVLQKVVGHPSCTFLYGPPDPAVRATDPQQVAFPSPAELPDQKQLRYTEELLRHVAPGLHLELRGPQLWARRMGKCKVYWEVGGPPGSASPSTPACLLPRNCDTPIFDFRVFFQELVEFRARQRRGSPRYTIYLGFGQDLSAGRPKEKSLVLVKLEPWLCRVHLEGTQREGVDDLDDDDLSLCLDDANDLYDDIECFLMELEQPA
CACGGTTTCCTTTCCCTGACGTGCTAG: 4.89 z-score
GACGGTTTCGACTTTCGGGACGTGCTA: 8.69 z-score
GACGGACTGCTTTTACTGACGTGCTAG: 0.377 z-score
TTAGAACTGGGGACGGGATTAGTGCTA: -0.311 z-score
TGAGGTATCGACACTGGGTTAGTGCTA: -0.489 z-score
TTAGGTATCAGGTTTCGGTTAGTGCTA: 4.91 z-score
TTAGGTTTCGAGTATCGGTTAGTGCTA: 3.68 z-score
GACGGTATCGGGACTGGTGACGTGCTA: -0.393 z-score
GACGGTCTCCTACTGCCGACGTGCTAG: 0.392 z-score
GACGATTCCAGTTCCGAGACGTGCTAG: 1.29 z-score
TTTATTTATTTATTTATTTAGTGCTAG: 0.651 z-score

Series 4
Target: Sal-like protein 4, full length isoform A (SALL4, Homo sapiens, UniProt Q9UJQ4, residues 1-1053)
UniProt Q9UJQ4, sequence (whole entry, looked up): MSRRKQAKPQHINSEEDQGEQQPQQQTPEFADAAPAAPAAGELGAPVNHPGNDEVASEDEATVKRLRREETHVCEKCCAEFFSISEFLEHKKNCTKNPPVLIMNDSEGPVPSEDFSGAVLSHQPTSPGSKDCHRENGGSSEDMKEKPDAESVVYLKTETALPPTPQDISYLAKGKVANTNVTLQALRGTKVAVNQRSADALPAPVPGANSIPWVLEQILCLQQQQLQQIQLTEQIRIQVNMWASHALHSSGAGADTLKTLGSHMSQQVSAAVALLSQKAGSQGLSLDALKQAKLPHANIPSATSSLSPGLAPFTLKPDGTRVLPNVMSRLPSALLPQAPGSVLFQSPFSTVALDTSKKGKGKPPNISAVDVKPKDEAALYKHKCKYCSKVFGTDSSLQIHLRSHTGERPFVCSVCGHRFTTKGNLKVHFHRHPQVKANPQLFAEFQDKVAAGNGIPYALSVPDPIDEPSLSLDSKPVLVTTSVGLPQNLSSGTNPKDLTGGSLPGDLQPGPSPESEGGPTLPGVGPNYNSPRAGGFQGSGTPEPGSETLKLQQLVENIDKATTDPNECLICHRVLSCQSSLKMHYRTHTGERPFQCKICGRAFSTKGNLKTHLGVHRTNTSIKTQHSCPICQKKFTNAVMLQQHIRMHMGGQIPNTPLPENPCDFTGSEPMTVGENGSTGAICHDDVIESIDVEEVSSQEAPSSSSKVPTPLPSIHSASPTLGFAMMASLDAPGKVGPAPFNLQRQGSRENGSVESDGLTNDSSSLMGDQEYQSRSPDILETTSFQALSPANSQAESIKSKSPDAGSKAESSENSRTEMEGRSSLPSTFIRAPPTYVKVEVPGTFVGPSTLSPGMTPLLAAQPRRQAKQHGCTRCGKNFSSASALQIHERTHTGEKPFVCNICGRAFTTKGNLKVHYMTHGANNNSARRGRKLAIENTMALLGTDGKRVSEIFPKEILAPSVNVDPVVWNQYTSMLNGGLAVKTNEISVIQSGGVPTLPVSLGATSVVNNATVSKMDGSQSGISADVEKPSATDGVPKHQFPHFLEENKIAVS
Technique: universal PBM
Form: double-stranded DNA, one strand shown
Matrix: in vitro
Concentration: 600 nM
Setting: 8-mer, flanks averaged, mean of replicates
Reading: higher = stronger binding
Endpoint: E-score
TCCCGGAA: -0.108
ACTAAAGG: 0.0493
AACTCGTG: 0.0324
AAAGCCGG: -0.165
CAGCATAA: 0.251
CTAATAGC: 0.105
ACCTCGAC: 0.00165
CCCCAACG: -0.258
AACGCTGG: -0.218
ATGGAAAG: 0.182
CGTTCTCA: 0.0272
CAAGGCAC: -0.263
TAACACTA: 0.325
GCCTTTCA: -0.0474
TGCGCTAA: 0.0693
CTATTTTA: 0.291
ATCGCGCC: -0.196
AGTTGAAA: 0.17
